Assay results pooled from the literature.
Numbers after ± are the reported error.

O=c1[nH]c(=O)c(Cc2cccc(C(F)(F)F)c2)c([C@H]2CC[C@H](c3ccccc3)CC2)[nH]1
Tmax (human, plasma; oral, 900 mg, single dose SDD suspension, fed, median): 2 h

COC(=O)C(c1ccccc1Cl)N1CCC(S)C(=CC(=O)O)C1 (stereo not shown)
Tmax (human patients, CYP3A4 wt/wt, plasma; oral, 75 mg clopidogrel daily, day 7, median): 1 h

COc1cc2ncnc(Nc3ccc(F)c(Cl)c3)c2cc1OCCCN1CCOCC1
Tmax (human, plasma; oral, 250 mg, median, together with: vorinostat 400 mg): 4.1 h

O=S1(=O)c2ccc(F)cc2Oc2cc(OCC(F)(F)F)ccc21
Tmax (human, male, plasma; oral): 0.5 h

CO[C@H]1C[C@@H]2CC[C@@H](C)[C@@](O)(O2)C(=O)C(=O)N2CCCC[C@H]2C(=O)O[C@H]([C@H](C)C[C@@H]2CC[C@@H](OCCO)[C@H](OC)C2)CC(=O)[C@H](C)/C=C(\C)[C@@H](O)[C@@H](OC)C(=O)[C@H](C)C[C@H](C)/C=C/C=C/C=C/1C
Tmax (healthy adult human, blood; 0.75 mg single dose, median, compound alone): 2 h

COc1cc2c(Oc3ccc4[nH]c(C)cc4c3F)ncnc2cc1OCCCN1CCCC1
Tmax (human patients, plasma; oral, 30 mg, cycle 2 day 1, median, together with: pemetrexed): 4 h

COCCCCn1c(C(=O)N(CC(C)C)[C@@H]2CNC[C@H](C(=O)N3CCOCC3)C2)nc2ccccc21
Tmax (non-elderly human, plasma; oral, 160 mg once daily, day 7): 1.5 h

Cc1cc(C)c2c(c1)[C@@H](N(Cc1cc(C(F)(F)F)cc(C(F)(F)F)c1)c1nnn(C)n1)CCCN2C[C@H]1CC[C@H](C(=O)O)CC1
Tmax (LC-MS/MS; human, plasma; oral, 300 mg once daily, steady state): 4 h

Cc1[nH]c2ccccc2c1CCNCc1ccc(/C=C/C(=O)NO)cc1
Tmax (human, plasma; oral, 20 mg, fed, normal breakfast): 2.5 h

O=C(Cc1cccc(OC(F)(F)F)c1)Nc1ccc(CCCCc2nnc(NC(=O)Cc3ccccn3)s2)nn1
Tmax (human patients, plasma; oral, 150 mg three times daily fasted, cycle 1 day 15 steady state): 1 h

N[C@]1(C(=O)O)[C@H]2[C@@H](C[C@@H]1F)[C@@H]2C(=O)O
Tmax (human, both sexes, fed, plasma; oral, 60 mg, day 14, multiple ascending dose): 3 h

CN1C(=O)[C@@H](NC(=O)c2nnc(Cc3ccccc3)[nH]2)COc2ccccc21
Tmax (human male, plasma; oral, 120 mg twice daily, day 14): 2 h

CCOc1ccc(Cc2cc([C@]34OC[C@](CO)(O3)[C@@H](O)[C@H](O)[C@H]4O)ccc2Cl)cc1
Tmax (human, fed, plasma; oral, dose not given, range of medians, monotherapy and fixed-dose combinations): 2 to 2.5 h

Cc1cnc(-c2ccnc(C(C)(C)O)n2)cc1-n1c(C)cc(OCc2ncc(F)cc2F)c(Cl)c1=O
Tmax (human; oral, 10 to 50 mg twice daily, day 7, median across doses): 2 to 3 h

C=C(C)[C@@H]1CC[C@]2(NCCN3CCS(=O)(=O)CC3)CC[C@]3(C)[C@H](CC[C@@H]4[C@@]5(C)CC=C(C6=CC[C@@](CF)(C(=O)O)CC6)C(C)(C)[C@@H]5CC[C@]43C)[C@@H]12
Tmax (human, HIV-1 treatment-naive, plasma; oral, 200 mg single with food, day 1): 5.53 h

COc1ccc2nc([S@@+]([O-])Cc3ncc(C)c(OC)c3C)[nH]c2c1
Tmax (HPLC; human CYP2C19 intermediate metabolizers, plasma; oral, 40 mg/day, day 1, pantoprazole): 7.25 ± 6.92 h

Cn1cncc1[C@@](N)(c1ccc(Cl)cc1)c1ccc2c(c1)c(-c1cccc(Cl)c1)cc(=O)n2C
Tmax (human, plasma; oral, 1400 mg twice daily, day 5): 3 h

O=C(c1ccc(F)c(F)c1Nc1ccc(I)cc1F)N1CC(O)([C@@H]2CCCCN2)C1
Tmax (human, plasma; oral, 100 mg, steady state): 3 h

Nc1ncc(-c2cnn(CCO)c2)c2scc(-c3ccc(NC(=O)Nc4cccc(F)c4)cc3)c12
Tmax (human patients, plasma; oral, all doses pooled, first dose): 3.1 ± 0.9 h

C=C(C)[C@@H]1CC[C@]2(NCCN3CCS(=O)(=O)CC3)CC[C@]3(C)[C@H](CC[C@@H]4[C@@]5(C)CC=C(C6=CC[C@@](CF)(C(=O)O)CC6)C(C)(C)[C@@H]5CC[C@]43C)[C@@H]12
Tmax (human, plasma; oral, 200 mg multiple doses, day 1): 4 h

Cn1ncc(Cl)c1-c1cc(C(=O)N[C@H](CN)Cc2ccc(F)c(F)c2)oc1Cl
Tmax (human patients, plasma; oral, 20 mg, single dose, fasting): 3.13 h

CCOC(=O)C1=C[C@@H](OC(CC)CC)[C@H](NC(C)=O)[C@@H](N)C1
Tmax (healthy Indian human, plasma; oral, 75 mg single, test capsule fed): 2.69 ± 0.96 h

CS(=O)(=O)n1cc2c(n1)CN([C@H]1CO[C@H](c3cc(F)ccc3F)[C@@H](N)C1)C2
Tmax (healthy male human, plasma; oral, 25 mg once weekly, day 1, fasted, median): 1 h

C=CC(=O)N1CCC([C@@H]2CCNc3c(C(N)=O)c(-c4ccc(Oc5ccccc5)cc4)nn32)CC1
Tmax (human; oral, 160 mg single dose, median): 1.5 h

CCOc1ccc(Cc2cc([C@@H]3S[C@H](CO)[C@@H](O)[C@H](O)[C@H]3O)c(OC)cc2C)cc1
Tmax (human, plasma; oral, 5 mg/day, day 1, multiple dose before breakfast): 0.625 ± 0.354 h

CNCc1ccc(-c2[nH]c3cc(F)cc4c3c2CCNC4=O)cc1
Tmax (human patients, female; oral, 600 mg twice daily, range): 1.7 to 5 h

Cc1ccc(NC(=O)c2ccc(CN3CCN(C)CC3)cc2)cc1Nc1nccc(-c2cncc(-c3oncc3C)c2)n1
Tmax (older healthy human adults, plasma; oral, 12.5 mg single dose, fed, mean): 7.33 h

C#C[C@]1(COP(=O)(O)OP(=O)(O)OP(=O)(O)O)O[C@@H](n2cnc3c(N)nc(F)nc32)C[C@@H]1O
Tmax (healthy humans, fasted, PBMC intracellular; oral, dose not given, individual range, rising single doses): 6 to 48 h

Cc1cccc(Cn2nc(C3CC3)c3c(NC(=O)c4cnc5cc(OCCN6CCN(C)CC6)ccn45)cccc32)n1
Tmax (human patients PDA, plasma; oral, 300 mg, cycle 1 day 1, median): 2 h

CN[C@@H]1COc2c(S(=O)(=O)NC(=O)Nc3c4c(cc5c3CCC5)CCC4)cnn2C1
Tmax (human; oral, 600 mg): 4 h

CC(C)NC[C@@H](C(=O)N1CCN(c2ncnc3c2[C@H](C)C[C@H]3O)CC1)c1ccc(Cl)cc1
Tmax (human, Severe hepatic function, plasma; oral, 100 mg single dose, NCI classification, median): 1 h

COC(=O)c1ccc2c(c1)NC(=O)/C2=C(\Nc1ccc(N(C)C(=O)CN2CCN(C)CC2)cc1)c1ccccc1
Tmax (human, moderate liver impairment, plasma; oral, 100 mg twice daily, steady state): 3 h

CC(C)(C)OC[C@@H]1C(=O)NCCN1C(=O)C[C@H](N)Cc1cc(F)c(F)cc1F
Tmax (human, male, plasma; oral, single dose, fixed-dose combination with metformin, fasted, median): 5 h

C=CC(=O)N(C)CCOc1c(N)ncnc1-c1cc(F)cc(NC(=O)c2ccc(C3CC3)cc2F)c1C
Tmax (humans, whole blood; oral, multiple ascending dose): < 1.5 h

COc1ccnc(C[S+]([O-])c2nc3ccc(OC(F)F)cc3[nH]2)c1OC (stereo not shown)
Tmax (HPLC; human CYP2C19 rapid metabolizers, plasma; oral, 40 mg/day, day 5, esomeprazole): 1.5 h

COC(=O)c1ccc2c(c1)NC(=O)/C2=C(\Nc1ccc(N(C)C(=O)CN2CCN(C)CC2)cc1)c1ccccc1
Tmax (healthy human controls matched to Child-Pugh B, plasma; oral, 100 mg single dose, median): 3 h

CC(O)c1cc(C(=O)N[C@@H](C)Cn2ccc(-c3ccc(C#N)c(Cl)c3)n2)[nH]n1 (stereo partly shown)
Tmax (human, male, plasma; oral, 600 mg twice daily, day 7, with food, multiple doses): ~4 h
